# Measurements from different studies.
# Numbers after ± are the reported error.
Structure (SMILES),organism,test,test system,conditions,IC50
Nc1nc(-c2ccccc2)nc2[nH]nc(Nc3ccc(F)cc3)c12,coxsackievirus B3,"plaque formation, plaque reduction","HeLa, Nancy, resistant mutant P1094S",,3430 ± 970 nM
O=C(C1CCN(c2nnnn2-c2ccccc2)CC1)N1CCCc2ccccc21,Plasmodium falciparum,[3H]hypoxanthine incorporation,K1,72 h,620 nM
O=C(/C=C/CCl)OC1CCOC1=O (racemic),Vibrio harveyi,"quorum sensing bioluminescence, inhibitor",BB120,,15900 nM
CC(=O)O[C@H]1C[C@@H](C)O[C@H]2O[C@@H]3C[C@@H]4CC[C@@H]5[C@H](CC[C@]6(C)[C@@H](C7=CC(=O)OC7)CC[C@]56O)[C@@]4(C)C[C@H]3O[C@]21O,Schistosoma mansoni,microscopic viability score,adult worms,72 h,223 nM
O=C(/C=C/CBr)O[C@@H]1COC(=O)C1,Vibrio harveyi,"quorum sensing bioluminescence, inhibitor",BB120,,240 nM
CC(=O)O[C@@H]1C[C@@H](C)O[C@H]2O[C@@H]3C[C@@H]4CC[C@@H]5[C@H](CC[C@]6(C)[C@@H](C7=CC(=O)OC7)CC[C@]56O)[C@@]4(C=O)C[C@H]3O[C@]21O,Schistosoma mansoni,microscopic viability score,adult worms,72 h,335 nM
CC1N=C(CCCCCCCCCCC2=CC(CCCCCCCCCCC3=NC(C)C(O)CC3)C3CCCN3C2)CCC1O (centres unmarked),Cryptococcus neoformans,microbial growth,ATCC90113,,0.66 µg/mL
CC(=O)OC[C@H]1O[C@@H](NC(=O)NC(=O)[C@@H](C)Cc2ccc(C(C)C)cc2)[C@H](OC(C)=O)[C@@H](OC(C)=O)[C@@H]1OC(C)=O,Punta Toro virus,cytopathic effect,Vero,,100000 nM
Oc1ccc2[nH]c3c(c2c1)CCN=C3C1=C[C@@]2(O)CC/C=C\CCCCN3CC[C@@H]1[C@]1(C[C@@H]4/C=C\CCCCN4[C@H]12)C3,Hepatitis C virus,"viral replication, inhibitor, luciferase",,replicon,17.2 µg/mL
CC[C@H](C)[C@H](N)C(=O)N[C@@H](CO)C(=O)N[C@@H](Cc1ccccc1)C(=O)N[C@@H]1CSCc2ccc(cc2)-c2ccc(cc2)CSC[C@@H](C(=O)N[C@@H](CCC(=O)O)C(=O)N[C@@H](CO)C(=O)NCC(=O)N[C@@H](CO)C(N)=O)NC(=O)[C@H](Cc2ccc(O)cc2)NC(=O)[C@H](Cc2ccc(O)cc2)NC(=O)[C@H](CC(=O)O)NC(=O)[C@H](CC(C)C)NC(=O)[C@H](CC(C)C)NC(=O)[C@H](CCC(=O)O)NC1=O,HIV-1,"viral entry, single-cycle pseudovirus","Env HIV-25925-2, subtype C",,1100 ± 200 nM
O=C(O)[C@H](CNCCCCCCCCCCCCCc1cccnc1)c1ccccc1,Hepatitis C virus,"viral replication, inhibitor, luciferase",,replicon,15.6 µg/mL
CC(C)=CCNCCOC1C2CC3CC(C2)CC1C3 (centres unmarked),Saccharomyces cerevisiae,microbial growth,,,25 µg/mL
CC(=O)CCC1C(=O)NC(C(C)C)C(=O)NC(Cc2cccc(O)c2)C(=O)N2CCCC(N2)C(=O)OC(C(C)=CC=CC(=O)N2CCCCO2)CC=CC=CC(O)C(C)C1O (centres unmarked),Human immunodeficiency virus 1,"viral replication, flow cytometry",HeLa,48 h,310 nM
COc1cc2c(cc1OC)-c1c(OC)c(OC)cc3c1[C@H](C2)N(C)CC3,Schistosoma mansoni,"contractility, antagonist",schistosomula,"30 min, with: 5-HT 10 µM",3900 ± 720 nM

# Repeated from above:
Structure (SMILES),organism,test,test system,conditions,IC50
Nc1nc(-c2ccccc2)nc2[nH]nc(Nc3ccc(F)cc3)c12,coxsackievirus B3,"plaque formation, plaque reduction","HeLa, Nancy, resistant mutant P1094S",,3430 ± 970 nM
